# Results from different studies.
# Lines come from different studies, so protocols differ. ± marks the error that the study gave.
SMILES,organism,test,system,setting,scale,quantity,value
c1ccc(CN2CCNCCN(Cc3ccccc3)CCNCC2)cc1,Leishmania donovani,"parasite growth, resazurin",,"72 h, promastigote",,IC90,> 20 µM
COc1ccc(-c2ccc3oc(-c4ccc(OC)cc4)c(C#CC4(O)CCCCC4)c3c2)cc1,hepatitis C virus,"viral entry, HCV pseudoparticle entry",genotype 1a,10 µM,baseline: DMSO,remaining activity,86.1%
CC(C)C[C@H](NC(=O)[C@H](Cc1ccc(O)cc1)NC(=O)[C@@H]1CCCN1C(=O)[C@H](CCCNC(=N)N)NC(=O)[C@@H]1CCCN1C(=O)[C@H](CCCCN)NC(=O)[C@H](CC(=O)O)NC(=O)[C@@H]1CCCN1C(=O)[C@H](CCCNC(=N)N)NC(=O)C1(N)CCCCC1)C(=O)N1CCC[C@H]1C(=O)N[C@@H](CCCNC(=N)N)C(=O)N1CCC[C@H]1C(=O)N[C@@H](CCCNC(=N)N)C(=O)N1CCC[C@H]1C(=O)N1CCC[C@H]1C(=O)N[C@@H](CCCNC(=N)N)C(=O)N1CCC[C@H]1C(=O)N[C@H](C(=O)N[C@@H](CCCNC(=N)N)C(=O)N[C@@H](CSc1c(F)c(F)c(-c2c(F)c(F)c(SC[C@H](NC(=O)[C@H](CCCNC(=N)N)NC(=O)[C@@H](NC(=O)[C@@H]3CCCN3C(=O)[C@H](CCCNC(=N)N)NC(=O)[C@@H]3CCCN3C(=O)[C@@H]3CCCN3C(=O)[C@H](CCCNC(=N)N)NC(=O)[C@@H]3CCCN3C(=O)[C@H](CCCNC(=N)N)NC(=O)[C@@H]3CCCN3C(=O)[C@H](CC(C)C)NC(=O)[C@H](Cc3ccc(O)cc3)NC(=O)[C@@H]3CCCN3C(=O)[C@H](CCCNC(=N)N)NC(=O)[C@@H]3CCCN3C(=O)[C@H](CCCCN)NC(=O)[C@H](CC(=O)O)NC(=O)[C@@H]3CCCN3C(=O)[C@H](CCCNC(=N)N)NC(=O)C3(N)CCCCC3)C(C)C)C(=O)NN)c(F)c2F)c(F)c1F)C(=O)NN)C(C)C,Acinetobacter baumannii,"inner membrane permeabilization, PI/SYTO flow cytometry",,"concentration not given, 60 min, 37 °C",,PI-positive bacteria,> 80%
CC(=O)[O-].F[P-](F)(F)(F)(F)F.[Ni+2].c1ccc(CN2CCN3CCN(CC2)CCN(Cc2ccccc2)CC3)cc1,Leishmania donovani,parasite growth,THP-1 macrophages,intracellular amastigotes,,IC90,> 20 µM
O=[N+]([O-])c1ccc(C2=[N+]([O-])c3ccccc3N3CCCN=C23)cc1,Porphyromonas gingivalis,microbial growth,ATCC33277,,,MIC,≤ 0.06 µg/mL
CC(=O)[O-].F[P-](F)(F)(F)(F)F.[Co+2].c1ccc(CN2CCCNCCN(Cc3ccccc3)CCCNCC2)cc1,Leishmania donovani,"parasite growth, resazurin",,"72 h, promastigote",,IC90,> 15 µM
Oc1cc(C(F)(F)F)ccc1-c1nc2c(C(F)(F)F)cc(C(F)(F)F)cc2[nH]1,Acinetobacter baumannii,colistin potentiator,"AB 4112, colistin-resistant",5 µM,,MIC of colistin,0.5 µg/mL
CN1CC(=O)N=C1N.C[C@H](CCC(=O)O)[C@H]1CC[C@H]2[C@@H]3[C@@H](O)C[C@@H]4C[C@H](O)CC[C@]4(C)[C@H]3CC[C@]12C,Staphylococcus epidermidis,,TISTR 2172,"1 mg per disc, 18 to 24 h, 37 °C, 6 mm disc",,inhibition zone diameter,8.5 ± 0.6 mm
CC(=O)[O-].CN(C)C=O.F[P-](F)(F)(F)(F)F.[Co+2].c1ccc(CN2CCN3CCCN(CC2)CCN(Cc2ccccc2)CC3)cc1,Leishmania donovani,"parasite growth, resazurin",,"72 h, promastigote",,IC90,> 20 µM
CCCN1CCNC1=[S+][Ag-3]([O][N+](=O)[O-])([P+](c1ccccc1)(c1ccccc1)c1ccccc1)[P+](c1ccccc1)(c1ccccc1)c1ccccc1,Staphylococcus epidermidis,,"MTCC 435, DMSO","0.1 mL of 50 mg/mL in 8 mm well, 18 to 24 h",,inhibition zone diameter,24 mm
CC1(C)NCCC[C@]2(C)[C@H]3CC=C4[C@@H]5C[C@@](C)(CO)CC[C@]5(C)CC[C@@]4(C)[C@]3(C)CC[C@@H]12,Human papillomavirus 11,viral replication,C-33 A,,baseline: CC50 over EC50,selectivity index,< 1
Cc1cc(C(=O)Nc2nc3cccc(C)c3n2[C@H]2CCCCN(C(=O)/C=C/CN(C)C)C2)ccn1,Trypanosoma brucei brucei,,2T1 overexpressing CLK1 C215S,72 h,baseline: parental 2T1,EC50 shift,> 60 fold
CN[C@@H]1[C@H](O)[C@H](NC)[C@H]2O[C@]3(O)[C@H](O[C@@H]2[C@H]1O)O[C@H](C)C[C@@]3(O)CNCc1ccc(OC(F)(F)F)cc1,Neisseria meningitidis,,ATCC 13077,40 µg per disc,,inhibition zone diameter,18 to 19 mm

# Repeated from above:
SMILES,organism,test,system,setting,scale,quantity,value
CC(=O)[O-].CN(C)C=O.F[P-](F)(F)(F)(F)F.[Co+2].c1ccc(CN2CCN3CCCN(CC2)CCN(Cc2ccccc2)CC3)cc1,Leishmania donovani,"parasite growth, resazurin",,"72 h, promastigote",,IC90,> 20 µM
CC(=O)[O-].F[P-](F)(F)(F)(F)F.[Ni+2].c1ccc(CN2CCN3CCN(CC2)CCN(Cc2ccccc2)CC3)cc1,Leishmania donovani,parasite growth,THP-1 macrophages,intracellular amastigotes,,IC90,> 20 µM
